Published values gathered from unrelated publications.
Compare with care: the assays were run in different laboratories. “And” joins repeats or separate records; there may be more than shown. ± gives the spread as reported.

C[C@H]1[C@H](C)CC[C@]2(C(=O)O)CC[C@]3(C)C(=CC[C@@H]4[C@@]5(C)CC[C@H](O)C(C)(C)[C@@H]5CC[C@]43C)[C@H]12
cell survival (MCF7; cell growth, MTT; 12.5 µg/mL, 48 h): 65.36 ± 0.61%

CN1CCN(C2(CNC3CCN(c4cccc(-c5cc6cc(F)ccc6[nH]5)c4)CC3)CCC2)CC1
CC50 (BT-549): 6.85 µM

Cc1cccc(-c2cccc(C)n2)n1.Cc1cccc(-c2cccc(C)n2)n1.F[P-](F)(F)(F)(F)F.F[P-](F)(F)(F)(F)F.[Ru+2].c1ccc2cc(-c3nc4c5cccnc5c5ncccc5c4[nH]3)ccc2c1
EC50 (SK-MEL-28; cell viability; normoxia, together with: green light 523 nm, 100 J/cm2): 29.9 ± 1.2 µM

COc1cc(CCC[P+](c2ccccc2)(c2ccccc2)c2ccccc2)c(OC)c2c1OCO2.[I-]
TGI (Hs-578T; SRB): -5.07 log M

Cc1c2ccncc2c(C)c2c1[nH]c1ccccc12
selectivity index (FaDu; SRB; baseline: normal over FaDu IC50): 1.02

N.N.[Cl][Pt][Cl]
annexin V-positive cells (SAS; annexin V/PI staining; 50 µM, 24 h, mean): 23.9%

CCn1cc(-c2cc(Cn3ccnc3)cc3c2CCN([C@H](c2cc(OC)ccn2)C2CC2)C3=O)c(C(F)(F)F)n1
EC50 (A101D; cell growth, inhibitor; 120 h): 0.0666 µM

Cc1ccc(-n2sc3ccccc3c2=O)cc1
MHC-I surface recovery (HIV-infected PBMCs; refers to: HLA-A2; 1.0 µM, two donors): 16.2 ± 1.1%

CC(C)C[C@H](NC(=O)[C@H](CCc1ccccc1)NC(=O)CN1CCOCC1)C(=O)N[C@@H](Cc1ccccc1)C(=O)N[C@@H](CC(C)C)C(=O)[C@@]1(C)CO1
fold change (patient normal conditionally reprogrammed cells; RNA-seq, refers to: MAP1A mRNA; human; concentration not given; baseline: DMSO): -61.6

O=C1CCP(=S)(c2ccccc2)CC1
IL-6 level reduction (HaCaT; ELISA; concentration not given, compound at IC50; baseline: control): 38.9%

CC(C)N1CCC(NC2CCN(c3cccc(-c4cc5cc(F)ccc5[nH]4)c3)CC2)CC1
GI50 (CCRF-CEM): 1.84 µM

COc1ccc2c(c1)[nH]c1c(C)nccc12
methylation reduction (DU-145; bisulfite pyrosequencing, refers to: RASSF1A promoter CpG site 11; concentration not given; baseline: vehicle): 0.59%

Nc1ncnc2c1ncn2[C@@H]1O[C@@H]2COP(=O)(O)O[C@H]3[C@@H](O)[C@H](n4cnc5c(=O)[nH]cnc54)O[C@@H]3COP(=O)(O)O[C@H]2[C@H]1O
pathway fold enrichment (HFF-1; RNA sequencing, refers to: Regulated Necrosis; upregulated pathway; baseline: Zika virus alone): 7.01

Cn1cncc1C1=CN(c2ncnc3[nH]cnc23)CCS1
CC50 (MDA-MB-231/ATCC): > 200 µM

CC(c1ccccc1)(c1ccc(O)cc1)c1ccc(O)cc1
S phase cells (HepG2 spheroids; Hoechst flow cytometry; 0.10 µM, 96 h): 7.96 ± 1.58%

COc1ccc([C@H]2c3[nH]c4ccc(Cl)cc4c3CCN2C(=O)Oc2ccc(Cl)cc2)cc1
inhibition (CD19+ B cells with PBMC; cytokine secretion, refers to: TNF-α; 0.1 µM, 72 h, BioMAP BT system): 66%

O=S(=O)(c1ccc(O)cc1)c1ccc(O)cc1
G1 phase cells (HepG2 spheroids; Hoechst flow cytometry; 40 µM, 24 h): 72.2 ± 3.21%

N.N.[Cl][Pt][Cl]
EC50 (SK-MEL-28; cell viability, resazurin; dark, 1% O2 hypoxia): 3.35 ± 0.09 µM

O=C(Nc1ccc2[nH]nc(-c3ccncc3)c2c1)[C@@H]1CCN(CC(=O)N2CCN(c3ccc(-c4ncccn4)cc3)CC2)C1
PI-positive cells (HCT116; IncuCyte; concentration not given, 0 (unit not given)): 3.83 count and 1.42 count and 2.42 count

CC(C)=CCc1c(O)cc(O)cc1-c1cc2ccc(O)c(CC=C(C)C)c2o1
cell survival (3T3; cell growth, MTT; 1.8 µg/mL, 48 h): 92.7 ± 1.4%

O=C1N(Cc2ccccc2Cl)c2ccccc2C12NN=C(c1ccccc1)S2 (stereo not drawn)
fold change (MDA-MB-468; gene expression array, refers to: BARD1 mRNA; 10 µM, 12 h; baseline: untreated, down): 1.51

COc1c(C)c2c(c(O)c1C/C=C(\C)CCC(=O)O)C(=O)OC2
IC50 (L-363; cell proliferation; blood cancer): 0.407 µM

C/C=C(/C)C(=O)O[C@H]1C(C)=C2[C@H]([C@@H]1OC(=O)CCCCCCC)[C@@](C)(OC(C)=O)C[C@H](OC(=O)CCC)[C@@]1(O)[C@H]2OC(=O)[C@@]1(C)O
normalized enrichment score (HEK-293T; RNA-seq GSEA, refers to: Hallmark Notch signaling; 500 nM, 6 h; direction not given): -1.69

CCN(CC)CCOC(=O)C(O)(c1ccccc1)c1ccccc1
reversal of trafficking deficit (primary rat hippocampal/cortical neuron-glia cultures; 1 µM, together with: 1 µM α-synuclein oligomers): -16.2%

COc1c(CCC[P+](c2ccccc2)(c2ccccc2)c2ccccc2)cc2c(c1OC)OCO2.[I-]
GI50 (SNB-19; SRB): -5.84 log M

Oc1ccc(C2(c3ccc(O)cc3)c3ccccc3-c3ccccc32)cc1
G1 phase cells (HepG2 spheroids; Hoechst flow cytometry; 0.10 µM, 96 h): 73.3 ± 6.64%

COc1ccc2c(c1)CC[C@@H]1[C@@H]2CC[C@]2(C)[C@@H](NCCCCCCN3C(=O)C=CC3=O)CC[C@@H]12
effect on signal (N2a; fluorescence signal increase, inhibitor; 300 nM, together with: ionomycin 2.5 µM): inhibited

Oc1cc(O)cc(-c2cc3ccc(O)cc3o2)c1
cell survival (3T3; cell growth, MTT; 7.25 µg/mL, 48 h): 74.58 ± 0.42%

Nc1ncc(-c2nc(N3CCOCC3)nc(N3CCOCC3)n2)c(C(F)F)n1
GI50 (LNCaP clone FGC; cell growth; 72 h): 0.06 µM

CC(C)[C@H](N)C(=O)N1CCC[C@H]1B(O)O
viability (EA.hy926; cell death, CellTiter-Glo; concentration not given, compound alone): 34.3% and 21.6%

COc1cnc(OC)n2nc(NS(=O)(=O)c3c(OCC(F)F)cccc3C(F)(F)F)nc12
inhibition (HEK293T; cytotoxicity, CCK-8; 0.78 µM, 72 h): 0%

CCN(CC)c1ccc(C=NNC(=O)CSc2nc3ccccc3c(=O)n2Cc2ccc(S(N)(=O)=O)cc2)c(O)c1
CC50 (SK-MEL-2; NCI five-dose screen): > 100 µM

CN1CCN(S(=O)(=O)c2cc([N+](=O)[O-])ccc2N(CCOS(C)(=O)=O)CCOS(C)(=O)=O)CC1
IC50 fold change (sample C B-ALL PDX cells; cell viability; ex vivo; 48 h, together with: AKR1C3 inhibitor; baseline: with inhibitor over alone): 87.4

Excerpt of the above:
CC(C)N1CCC(NC2CCN(c3cccc(-c4cc5cc(F)ccc5[nH]4)c3)CC2)CC1
GI50 (CCRF-CEM): 1.84 µM

COc1ccc2c(c1)[nH]c1c(C)nccc12
methylation reduction (DU-145; bisulfite pyrosequencing, refers to: RASSF1A promoter CpG site 11; concentration not given; baseline: vehicle): 0.59%

Nc1ncnc2c1ncn2[C@@H]1O[C@@H]2COP(=O)(O)O[C@H]3[C@@H](O)[C@H](n4cnc5c(=O)[nH]cnc54)O[C@@H]3COP(=O)(O)O[C@H]2[C@H]1O
pathway fold enrichment (HFF-1; RNA sequencing, refers to: Regulated Necrosis; upregulated pathway; baseline: Zika virus alone): 7.01
